Measurements pooled from the literature.
Each line is one published result; not all experiments were run side by side. ± gives the spread as reported.
USP3 ZnF-UBD domain: Ubiquitin carboxyl-terminal hydrolase 3, ZnF-UBD domain (USP3, Homo sapiens, UniProt Q9Y6I4)
Chain of UniProt Q9Y6I4 (whole entry, looked up): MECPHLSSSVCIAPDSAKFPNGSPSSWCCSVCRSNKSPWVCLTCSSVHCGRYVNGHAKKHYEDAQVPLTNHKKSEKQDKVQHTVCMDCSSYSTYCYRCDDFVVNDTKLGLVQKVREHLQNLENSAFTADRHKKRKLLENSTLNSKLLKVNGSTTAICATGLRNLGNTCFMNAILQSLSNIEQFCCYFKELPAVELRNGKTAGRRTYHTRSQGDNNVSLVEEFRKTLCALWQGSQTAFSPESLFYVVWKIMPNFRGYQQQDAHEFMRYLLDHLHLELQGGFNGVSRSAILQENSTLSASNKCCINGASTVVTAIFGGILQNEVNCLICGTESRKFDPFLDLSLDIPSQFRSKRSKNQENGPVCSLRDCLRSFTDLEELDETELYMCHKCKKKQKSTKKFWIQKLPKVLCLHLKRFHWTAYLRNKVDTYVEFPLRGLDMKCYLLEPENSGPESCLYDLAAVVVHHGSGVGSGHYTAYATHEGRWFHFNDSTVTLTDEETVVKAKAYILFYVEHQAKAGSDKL

`Cc1cc(Nc2ccc(S(F)(F)(F)(F)F)cc2)n2nc(C(C)(F)F)nc2n1` — result for “patients with QTcF above threshold”: 10% (Plasmodium falciparum; 12-lead Holter ECG; human malaria patients; oral, 400 mg, QTc above 450 ms).
`CCOC(=O)C1CCN(C(=O)c2ccc(N(C)Cc3cnc4nc(N)nc(N)c4n3)cc2)CC1` has a CC50 of 50 to 100 µM (THP-1-derived macrophages; MTT).
`NC(=O)CCNC(=O)c1ccc([C@H]2[C@@H](F)[C@@H](F)C[C@@H](F)[C@H]2F)cc1` has a hepatic clearance of 6.1 mL/min/kg (liver microsome stability; rat liver microsomes; 1 µM).
`CN1CCN(c2cccc(-c3ccc4ncnc(Nc5ccc([N+](=O)[O-])c(C(F)(F)F)c5)c4c3)c2)CC1` gave a selectivity index of 1100 (Trypanosoma brucei; HepG2; 48 h; reference: HepG2 CC50 over T. brucei GI50).
With `NC(=O)c1ccc(-c2nc(-c3ccccn3)c(-c3ccc4c(c3)OCO4)[nH]2)cc1` the inhibition was 18.1% (Trypanosoma brucei brucei; cell growth; concentration not given, PKIS HTS).
`Cc1cc(C(=O)NC(C)(C)COc2cccc3c2C(N)=NS(=O)(=O)N3)cc(C)n1`: “micronucleated binucleated cells” 0.3% (human peripheral blood lymphocytes; in vitro micronucleus test; 500 µg/mL, 4 h, with rat liver S9 activation, DMSO 0.4%).
The CC50 of `NC(=O)C1CCN(C(=O)c2ccc(NCc3cnc4nc(N)nc(N)c4n3)cc2)CC1` is reported as greater than 100 µM (THP-1-derived macrophages; MTT).
Under “subjects with dental ulcer TEAE”, `O=C(O)CCC(=O)O.[2H]C([2H])([2H])Oc1cc(C)c2[nH]ccc2c1CN1CC[C@@H](C2CC2)C[C@H]1c1ccc(C(=O)O)cc1` is recorded as 0% (multiple ascending dose; healthy Chinese subjects; 125 mg twice daily).
The hepatic clearance of `COCCC(=O)Nc1ccc(C2CCCCC2)cc1` is reported as 19 mL/min/kg (hepatocyte stability; cryopreserved human hepatocytes; 1 µM).
Under “maximum non-toxic concentration”, `Nc1nc(NS(=O)(=O)c2ccccc2)nc(-c2ccccc2)c1-c1nc2ccccc2s1` is recorded as 90 µg/mL (FRhK-4; cytotoxicity; 72 h).
For `Nc1nc(N)c2nc(CNc3ccc(C(=O)NCCc4ccccc4)cc3)cnc2n1`, the CC50 was 25 to 50 µM (THP-1-derived macrophages; MTT).
For `FC(F)(F)c1cc(Nc2ncnc3ccc(-c4cccc(N5CCOCC5)c4)cc23)ccc1Cl`, the selectivity index was 580 (Trypanosoma brucei; HepG2; 48 h; reference: HepG2 CC50 over T. brucei GI50).
`CC[C@H](CO)N(CCN(N=O)[C@H](CC)CO)N=O`: “revertant colonies per plate” 29 ± 1 (Salmonella typhimurium; plate incorporation; TA1535, water; 2500 µg/plate, without S9).
`CCN1/C(=C/C(C)=O)Sc2ccc(F)cc21`: “PR interval change” 103 ± 6.6% (cynomolgus monkey; oral, 10 mg/kg, 6 h post-dose; reference: pre-dose).
The hepatic clearance of `O=C(Cn1ccnc1)Nc1ccc(C2CCCCC2)cc1` is reported as 25 mL/min/kg (cryopreserved rat hepatocytes; 1 µM).
With `c1cc(-c2ccc3ncnc(Nc4ncco4)c3c2)nc(N2CCOCC2)n1` the selectivity index was 110 (Trypanosoma brucei; HepG2; 48 h; reference: HepG2 CC50 over T. brucei GI50).
`COC(=O)C1CCN(C(=O)c2ccc(N(CCCO)Cc3cnc4nc(N)nc(N)c4n3)cc2)CC1` gave a CC50 of greater than 100 µM (THP-1-derived macrophages; MTT).
`CC(C)C[C@@H](C=O)NC(=O)[C@H](CC(C)C)NC(=O)[C@H](CC(C)C)NC(=O)OCc1ccccc1` gave an Emax of 91% (Mus musculus; gene silencing, high-content imaging; LDR reporter GFP cells; 30 h, confirmation, mean of two runs).
`O=C(O)CCc1ccccc1OCc1ccccn1` has a Kd of 49.5 µM (USP3 ZnF-UBD domain).
The AUC of `COc1cccc2c1C(=O)c1c(O)c3c(c(O)c1C2=O)C[C@@](O)(C(=O)CO)C[C@@H]3O[C@H]1C[C@H](NC(=O)[C@@H]2CCCN2C(=O)CNC(=O)[C@@H](N)CC(C)C)[C@H](O)[C@H](C)O1` is reported as 0.37 µM·h (healthy mouse, plasma; intravenous, 94.4 mg/kg PhAc-ALGP-Dox).
Under “volume of distribution”, `CC(C)[C@H](NC(=O)[C@@H](NC(=O)CCCc1cn(CC(O)CN2CCN(CC(=O)O)CCN(CC(=O)O)CCN(CC(=O)O)CC2)nn1)[C@@H](C)O)C(=O)N[C@@H](CCCNC(=N)N)C(=O)N[C@H](C(=O)N[C@@H](CO)C(=O)N[C@@H](C)C(=O)N[C@@H](CC(=O)O)C(=O)O)[C@@H](C)O` (stereo partly drawn) is recorded as 0.201 ± 0.021 L/kg (healthy male humans, plasma; intravenous, 0.08 mmol/kg).
`Cn1cc(-c2ccc(-c3cncc(Cl)c3N3CCC4(CCNC4=O)CC3)cc2)cn1` — result for “log2 fold change”: 1.51 (COLO 205; gene expression, microarray, measured: NAIP mRNA; concentration not given, 6 h; reference: untreated cells).
For `COCCN(C)C(=O)c1ccc(C2CCCCC2)cc1`, the hepatic clearance was 51 mL/min/kg (liver microsome stability; rat liver microsomes; 1 µM).
For `CC(C)(C(=O)N1CCOc2c(C#N)cncc2C1)C(F)F`, “subjects with TEAE” read 16.7% (measured: ventricular extrasystoles; healthy humans, both sexes; oral, 10 mg single dose).
`CC(C)C[C@H](NC(=O)C[C@H](O)[C@H](CC(C)C)NC(=O)[C@H](Cc1c[nH]cn1)NC(=O)CNC(=O)[C@@H](NC(=O)[C@H](C)NC(=O)[C@H](Cc1c[nH]c2ccccc12)NC(=O)[C@H](CCC(N)=O)NC(=O)[C@@H](Cc1ccccc1)NC(=O)COCCOCCNC(=O)CCC(C(=O)O)N1CCN(CC(=O)O)CCN(CC(=O)O)CCN(CC(=O)O)CC1)C(C)C)C(N)=O` (stereo partly drawn) [lutetium-177 labelled] gave a tissue uptake of 0.39 ± 0.04 %ID/g (BALB/c nu/nu mice, liver; intravenous, 250 pmol, 1 h, with: PA 300 µg).
`CC[C@H]1[C@@H](O)[C@@H]2[C@H](CC[C@]3(C)[C@@H]([C@H](C)CCNC(=O)NS(=O)(=O)c4ccc(C(C)(C)C)cc4)CC[C@@H]23)[C@@]2(C)CC[C@@H](O)C[C@@H]12` gave a CL/F mean of 15.1 L/h (ABCB1 (Homo sapiens, UniProt P08183); substrate; human, plasma; dose not given, alone).
`CC(C(=O)Nc1ccc(C2CCCCC2)cc1)n1cncn1` (stereo not drawn) gave a hepatic clearance of 41 mL/min/kg (rat liver microsomes; 1 µM).
Under “treatment-emergent adverse events”, `O=C(Nc1nc2cccc(-c3ccc(CN4CCS(=O)(=O)CC4)cc3)n2n1)C1CC1` is recorded as 0% (measured: dyspepsia; human rheumatoid arthritis patients; oral, 300 mg once daily, 4 weeks, regardless of relatedness).
With `COC(=O)C1CCN(C(=O)c2ccc(N(Cc3ccccc3)Cc3cnc4nc(N)nc(N)c4n3)cc2)CC1` the CC50 was 12.5 to 25 µM (THP-1-derived macrophages; MTT).
For `Cc1cc(N)c2c(OCC(C)(C)C(=O)NC(C)C)cccc2n1`, “mean revertant colonies” read 68 colonies/plate (Salmonella typhimurium; reverse mutation, plate incorporation; TA100; 1000 µg/plate, without S9).
For `Nc1nonc1-c1nc2cnccc2n1C1CCCCC1`, the selectivity was 1.6 (Trypanosoma brucei; unit not given; reference: pEC50 T. brucei minus pTC50 HepG2).
`CN1CCN(c2cccc(-c3ccc4ncnc(Nc5ccc(Cl)c(C(F)(F)F)c5)c4c3)c2)CC1` gave a selectivity index of 48 (Trypanosoma brucei; HepG2; 48 h; reference: HepG2 CC50 over T. brucei GI50).
For `O=C(O)CCOc1ccccc1`, the Kd was greater than 1000 µM (USP3 ZnF-UBD domain).
For `CN1CCN(c2cccc(-c3ccc4ncnc(Nc5ccc(Cl)c(Cl)c5)c4c3)c2)CC1`, the selectivity index was 50 (Trypanosoma brucei; HepG2; 48 h; reference: HepG2 CC50 over T. brucei GI50).
`Cc1nc(-c2cnc(NC(C)C)n(C)c2=O)ccc1Oc1ccnc(-c2cnn(C)c2)c1` gave an IC50 of greater than 100 µM (CYP3A4/5, human; inhibitor; direct, no preincubation).
The hepatic clearance of `NS(=O)(=O)c1cccc(-c2ccc(C3CCCCC3)cc2)c1` is reported as 31 mL/min/kg (liver microsome stability; mouse liver microsomes; 1 µM).
For `CCOc1c([C@H](C)n2nc(C)c3c(N)ncnc32)cc(Cl)c(F)c1[C@@H]1CNC(=O)C1`, “observations with ΔQTcF 30-60 ms” read 0.8% (human B-cell malignancy patients; oral, 30 mg once daily).
`Cc1ccc(S(=O)(=O)Nc2ncc(-c3nc4ccccc4s3)c(N)n2)cc1`: “maximum non-toxic concentration” 110 µg/mL (FRhK-4; cytotoxicity; 72 h).
The hepatic clearance of `O=C(Cc1cccnc1)Nc1ccc([C@H]2[C@@H](F)[C@@H](F)C[C@@H](F)[C@H]2F)cc1` is reported as 3.9 mL/min/kg (human liver microsomes; 1 µM, without NADPH).

Excerpt of the above:
With `NC(=O)c1ccc(-c2nc(-c3ccccn3)c(-c3ccc4c(c3)OCO4)[nH]2)cc1` the inhibition was 18.1% (Trypanosoma brucei brucei; cell growth; concentration not given, PKIS HTS).
`Cc1cc(C(=O)NC(C)(C)COc2cccc3c2C(N)=NS(=O)(=O)N3)cc(C)n1`: “micronucleated binucleated cells” 0.3% (human peripheral blood lymphocytes; in vitro micronucleus test; 500 µg/mL, 4 h, with rat liver S9 activation, DMSO 0.4%).
The CC50 of `NC(=O)C1CCN(C(=O)c2ccc(NCc3cnc4nc(N)nc(N)c4n3)cc2)CC1` is reported as greater than 100 µM (THP-1-derived macrophages; MTT).
Under “subjects with dental ulcer TEAE”, `O=C(O)CCC(=O)O.[2H]C([2H])([2H])Oc1cc(C)c2[nH]ccc2c1CN1CC[C@@H](C2CC2)C[C@H]1c1ccc(C(=O)O)cc1` is recorded as 0% (multiple ascending dose; healthy Chinese subjects; 125 mg twice daily).
